Measurements collected from several papers.
Protocols differ between the studies behind these lines. Numbers after ± are the reported error.

CN[C@@](C)(C[18F])C(=O)O has a tracer uptake of 1.1 %ID/g (mouse, blood; 1 h, tumour-bearing).
For CC[C@H](C)[C@@H]1NC(=O)[C@H]([C@@H](C)O)NC(=O)[C@@H](NC(=O)[C@H](Cc2ccccc2)NC(=O)[C@H](C)NC(=O)[C@H](CCCCN)NC(=O)[C@H](CCCCN)NC(=O)[C@H](C)NC(=O)[C@@H](NC(=O)[C@H](CCCCN)NC(=O)[C@H](C)NC(=O)[C@H](C)NC(=O)[C@@H](NC(=O)CNC(=O)[C@H](C)NC(=O)[C@@H](NC(=O)[C@H](CCCCN)NC(=O)[C@@H]2CCCN2C(=O)[C@H](Cc2ccccc2)NC(=O)[C@@H](N)Cc2ccccc2)C(C)C)C(C)C)C(C)C)CSSC[C@@H](C(=O)O)NC(=O)[C@H](CCCCN)NC(=O)[C@H](CCCCN)NC(=O)[C@H](CO)NC1=O, the HC50 was over 128 µM (haemolysis; horse erythrocytes; 2 h, 37 °C).
The terminal half-life of CC(C)C[C@H](NC(=O)CNC(=O)c1cc(Cl)ccc1Cl)B(O)O is reported as 229 h (population PK; adult patients, plasma).
With CC[C@H](C)[C@H](NC(=O)[C@H](CO)NC(=O)[C@H](C)NC(=O)[C@@H](NC(=O)CNC(=O)[C@H](CO)NC(=O)[C@@H](NC(=O)[C@@H](NC(=O)[C@H](Cc1c[nH]cn1)NC(=O)[C@@H]1CCCN1C(=O)[C@@H](NC(=O)[C@H](CC(C)C)NC(=O)[C@H](CO)NC(=O)[C@H](CC(C)C)NC(=O)[C@@H](N)Cc1ccccc1)[C@@H](C)CC)[C@@H](C)CC)C(C)C)C(C)C)C(=O)N[C@@H](C)C(=O)N[C@@H](CCCCN)C(=O)N[C@@H](Cc1c[nH]cn1)C(=O)N[C@@H](Cc1ccccc1)C(N)=O the concentration found was 1540 ng/mL (UPLC-MS/MS; processed rat plasma in autosampler; 1.6 µg/mL, 8 h, 25 °C, post-preparative stability).
With CC[C@@]1(O)C(=O)OCc2c1cc1n(c2=O)Cc2cc3c(CN(C)C)c(O)ccc3nc2-1 the half-life ratio was 0.84 (human patients, plasma; oral, 8 mg weekly, MTD arm, weekly dosing, added: pazopanib; relative to: with pazopanib over alone).
With CNC(=O)c1ccc(-c2cnn3ccc(C(=O)N(C)c4ccc(Cl)c(C(=O)OC)c4)cc23)cc1 the AUC was 0.039 µM·h (rat, Wistar or Sprague Dawley, male, plasma, jugular vein (systemic); oral, 100 mg/kg).
Oc1ccc2ccc3cccc4ccc1c2c34 has a tissue concentration of 1100 ± 80 ng/g (HPLC-fluorescence; Wistar rat, male, duodenum; oral, 4 mg/kg PY, 24 h).
CC[C@H](C)[C@H](NC(=O)[C@H](Cc1c[nH]c2ccccc12)NC(=O)[C@@H]1CSSC[C@H](NC(=O)[C@H](CCC(=O)O)NC(=O)[C@H](Cc2c[nH]c3ccccc23)NC(=O)[C@H](CCC(N)=O)NC(=O)COCCOCCNC(=O)[C@H](CCC(=O)O)NC(=O)[C@H](Cc2c[nH]cn2)NC(=O)[C@@H](N)Cc2c[nH]cn2)C(=O)N2CCC[C@H]2C(=O)N[C@@H](Cc2ccc(O)cc2)C(=O)NCC(=O)N[C@@H](CC(C)C)C(=O)N1)C(=O)N[C@@H](CCC(N)=O)C(=O)O [technetium-99m labelled] has an elimination half-life of 2.9 ± 0.437 h (male C57BL/6 mouse, blood; intravenous).
With c1cc2ccc3cccc4ccc(c1)c2c34 the tissue concentration was 16.8 ± 1.8 ng/g (HPLC-fluorescence; Wistar rat, male, heart; oral, 4 mg/kg, 24 h).
Under “in vivo intrinsic clearance”, CCCCCCCCCN(C)C is recorded as 187 mL/h/g liver (liver S9 substrate depletion; rainbow trout liver S9; six-surfactant mixture).
O[C@H]1CCCN[C@@H]1CCCn1cnc2c(Cl)c(Cl)ccc21 has an AUC(0-last) of 594 ng·h/mL (human, plasma; oral, 100 mg single dose, capsule, geometric mean).
CC(C)C(=O)OC[C@H]1O[C@@H](n2ccc(NO)nc2=O)[C@H](O)[C@@H]1O gave a remaining compound of 101 ± 0.99% (rat brain dialysate; 5 ng/mL, 6 h, room temperature, bench-top stability, added: NHC 25 ng/mL).
For CC(C)C[C@@H]1NC(=O)[C@@H]2CSSC[C@@H](C(=O)NCC(N)=O)NC(=O)[C@H](Cc3ccccc3)NC(=O)CNC(=O)[C@H](CC(N)=O)NC(=O)[C@@H]3CCCN3C(=O)CNC(=O)[C@@H]3CSSC[C@H](NC(=O)[C@H](CO)NC(=O)[C@H]([C@@H](C)O)NC(=O)[C@@H]4CCCN4C(=O)[C@H](C)NC(=O)[C@H](Cc4c[nH]c5ccccc45)NC(=O)[C@H](CC(=O)O)NC(=O)CNC(=O)[C@H](CCCNC(=N)N)NC(=O)CNC(=O)[C@H](CCC(N)=O)NC(=O)[C@@H]4CCCN4C(=O)[C@@H](NC(=O)CNC(=O)c4ccc(F)cc4)CSSC[C@H](NC(=O)CNC(=O)[C@H](C)NC1=O)C(=O)N[C@@H](C(C)C)C(=O)N3)C(=O)N[C@@H](CO)C(=O)N[C@@H](CCC(N)=O)C(=O)N[C@@H](CC(=O)O)C(=O)N[C@@H](CO)C(=O)N[C@@H](CC(=O)O)C(=O)N2 [fluorine-18 labelled], the tumour uptake was 0.57 ± 0.14 %ID/g (biodistribution; nude mouse, U-87 MG xenograft, tumour; intravenous, 0.5 h, added: unlabelled c(RGDyK) 330 µg co-injected).
With C[C@H]1CO[C@@H]2Cn3cc(C(=O)NCc4ccc(F)cc4F)c(=O)c(O)c3C(=O)N12 the plasma concentration was 370 ng/mL (Indian rhesus macaque, female, Depo-Provera-treated, plasma; intramuscular, 50 mg/kg, 14 weeks after first dose, at first viral RNA detection).
CCCCCCCCCCCCCCCC[N+](C)(C)Cc1ccccc1: “unbound fraction in blood” 0.172 (ultrafiltration; human serum).
CC(=O)N[C@H](CCCCNC(=O)C(C)F)C(=O)N[C@@H](CS)C(=O)N[C@@H](CS)C(=O)N[C@@H](CCC(=O)O)C(=O)N[C@@H](Cc1c[nH]cn1)C(=O)N[C@H](Cc1ccccc1)C(=O)N[C@@H](CCCNC(=N)N)C(=O)N[C@@H](Cc1c[nH]c2ccccc12)C(=O)N[C@@H](CS)C(=O)N[C@@H](CCCNC(=N)N)C(=O)N1CCC[C@H]1C(=O)N[C@H](C(N)=O)C(C)C (some centres unmarked) [fluorine-18 labelled] gave a tissue uptake of 8.82 ± 0.76 %ID/g (C57BL/6 mice, male, B16-F10 tumour, kidney; intravenous, 1 h).
CCCCCOc1ccc(-c2ccc(-c3ccc(C(=O)N[C@H]4C[C@@H](O)[C@@H](O)NC(=O)[C@@H]5[C@@H](O)[C@@H](C)CN5C(=O)[C@H]([C@@H](C)O)NC(=O)[C@H]([C@H](O)[C@@H](O)c5ccc(O)cc5)NC(=O)[C@@H]5C[C@@H](O)CN5C(=O)[C@H]([C@@H](C)O)NC4=O)cc3)cc2)cc1 — result for “peak blood bilirubin”: 11.5 mg/dL (human; concentration not given).
O=C1Nc2ccc(Cl)cc2[C@@](C#CC2CC2)(C(F)(F)F)O1: “maximum tissue concentration” 1400 ng/g (LC-MS/MS; female hu-HSC-RAG mouse, brain; concentration not given, 1 day after 10-day dosing).
The remaining amount of CCNc1nc(Cl)nc(NC(C)C)n1 is reported as 34.9 ± 13.5% (LC-MS/MS; herbicide solution; 2 h, 40 °C, added: 365 nm UV exposure).
N[C@H](Cc1ccc(F)cc1)C(=O)O — result for “brain uptake clearance Kin”: 8.4 mL/100 g/min (in situ brain perfusion; CF-1 mice, wild type; 1 µM, 60-180 s).
The tissue/plasma ratio of [123I]c1cncc(OC[C@@H]2CCN2)c1 is reported as 18.1 (SPECT; human, head of caudate nucleus; intravenous bolus, 8.6 mCi; relative to: tissue over plasma).
CC[C@H](C)[C@H](NC(=O)[C@@H](N)CCCNC(=N)N)C(=O)N[C@H](C(=O)N1CCC[C@H]1C(=O)N[C@@H](C)C(N)=O)C(C)C has an AUC(0-t) of 323 ng·h/mL (human, plasma; intravenous, 1 mg/kg, single dose, healthy volunteers).
COc1ccc(C[C@@H]2NC(=O)[C@H]([C@@H](C)O)NC(=O)[C@@H]3[C@@H]4CCN3C(=O)[C@@H]3Cc5cn(c6ccc(F)cc56)CCCCCCN(Cc5ccc(cc5)CCNC(=O)[C@]5(C)CCCN5C2=O)C(=O)CCC(=O)N[C@@H](C)C(=O)N[C@H](CNC(=O)CCCCC[N+](C)(C)C)C(=O)N[C@@H](Cc2cccc(c2)CNC(=O)CO4)C(=O)N3)cc1 has a Vz/F of 14200 L (fasted healthy humans, plasma; oral, 200 mg single dose, with 1800 mg Labrasol, geometric mean).
CSCC[C@@H]1NC(=O)[C@H](CC(=O)O)NC(=O)CNC(=O)[C@H](CCCNC(=N)N)NC(=O)[C@H](C)NC(=O)[C@H](CCC(=O)O)NC(=O)[C@H](CCCNC(=N)N)NC(=O)[C@@H]2CSSC[C@@H]3NC(=O)[C@H](CO)NC(=O)[C@H]([C@@H](C)O)NC(=O)[C@@H]4CCCN4C(=O)[C@H](C)NC(=O)[C@H](Cc4c[nH]c5ccccc45)NC(=O)[C@H](CC(=O)O)NC(=O)CNC(=O)[C@H](CCCNC(=N)N)NC(=O)CNC(=O)[C@H](CCC(N)=O)NC(=O)[C@@H]4CCCN4C(=O)[C@@H](NC(=O)CNC(=O)C(C)F)CSSC[C@H](NC(=O)CNC(=O)[C@H](C)NC(=O)[C@H](CC(C)C)NC(=O)[C@H](CSSC[C@@H](C(=O)NCC(N)=O)NC(=O)[C@H]([C@@H](C)O)NC(=O)[C@H](CCCNC(=N)N)NC(=O)[C@@H]4CCCN4C1=O)NC(=O)[C@H](CC(=O)O)NC(=O)[C@H](CO)NC(=O)[C@H](CC(=O)O)NC(=O)[C@H](CCC(N)=O)NC(=O)[C@H](CO)NC3=O)C(=O)N[C@@H](C(C)C)C(=O)N2 (some centres unmarked) [fluorine-18 labelled] gave a tissue uptake of 0.09 %ID/g (nude mice U-87 MG xenograft, brain; intravenous, 1 h).
CCCCCOc1ccc(-c2cc(-c3ccc(C(=O)N[C@H]4C[C@@H](O)[C@@H](O)NC(=O)[C@@H]5[C@@H](O)[C@@H](C)CN5C(=O)[C@H]([C@H](O)CC(N)=O)NC(=O)[C@H]([C@H](O)[C@@H](O)c5ccc(O)c(OS(=O)(=O)O)c5)NC(=O)[C@@H]5C[C@@H](O)CN5C(=O)[C@H]([C@@H](C)O)NC4=O)cc3)no2)cc1 gave a Cmax of 23300 ng/mL (young infants at least 1000 g, plasma; intravenous infusion, 7 mg/kg/day, day 4, median, 1 h infusion, repeat dosing).
Under “elimination rate constant”, CC[C@H](C)CCCCC(=O)N[C@@H](CCN)C(=O)N[C@H](C(=O)N[C@@H](CCN)C(=O)N[C@H]1CCNC(=O)[C@H]([C@@H](C)O)NC(=O)[C@H](CCN)NC(=O)[C@H](CCN)NC(=O)[C@H](CC(C)C)NC(=O)[C@@H](Cc2ccccc2)NC(=O)[C@H](CCN)NC1=O)[C@@H](C)O is recorded as 0.226 h⁻¹ (human, serum; intravenous infusion, 2 mg/kg every 12 h).
With O=c1[nH]c(Cc2ccccn2)nc2c1cnn2C1CCOCC1 the half-life was 1.39 h (healthy men, extensive metabolizers, plasma; oral, 50 mg single dose, tablet, geometric mean).
CSCC[C@H](NC(=O)[C@H](CC(=O)O)NC(=O)CNC(=O)[C@H](CCCNC(=N)N)NC(=O)[C@H](Cc1ccc(O)cc1)NC(=O)[C@H](CC(=O)O)NC(=O)[C@H](CCCNC(=N)N)NC(=O)[C@H](Cc1c[nH]c2ccccc12)NC(=O)[C@@H](NC(=O)[C@H](Cc1c[nH]c2ccccc12)NC(=O)[C@@H](N)CCCNC(=N)N)C(C)C)C(=O)NCC(=O)N[C@@H](Cc1ccccc1)C(=O)N[C@@H](CC(=O)O)C(=O)N[C@@H](Cc1c[nH]c2ccccc12)C(=O)N[C@H](C(=O)N[C@@H](Cc1c[nH]c2ccccc12)C(=O)N[C@@H](CCC(=O)O)C(=O)O)C(C)C has a Tm of 46.7 ± 0.1 °C (circular dichroism; phosphate buffer; pH 6.5).
For Cc1ccc(OS(=O)(=O)O)cc1, “unbound fraction in plasma” read 2 ± 1% (untargeted mass spectrometry; human normal subjects, plasma ultrafiltrate).
Oc1cc(Cl)c(Cl)c(-c2ccc(Cl)cc2Cl)c1Cl gave an enantiomeric fraction of 0.54 (enantioselective GC, refers to: hydroxylated metabolite; phenobarbital-treated rat, rat liver microsomes; 50 µM, 30 min).
With NCCc1c[nH]c2ccccc12 the percent metabolized was over 100% (human liver mitochondrial preparation; 1 µM, 30 min, 0.5 mg/mL protein).
Under “apparent skin permeability”, CC(C)C[C@H](NC(=O)[C@H](C)NC(=O)[C@H](CCC(=O)O)NC(=O)[C@H](CC(C)C)NC(=O)[C@H](C)NC(=O)[C@H](CCC(=O)O)NC(=O)[C@H](C)NC(=O)[C@H](CC(C)C)NC(=O)[C@H](C)NC(=O)[C@H](CCC(=O)O)NC(=O)[C@H](C)NC(=O)[C@H](CC(C)C)NC(=O)[C@H](Cc1c[nH]cn1)NC(=O)[C@H](CCC(=O)O)NC(=O)[C@H](C)NC(=O)[C@H](CC(C)C)NC(=O)[C@H](C)NC(=O)[C@H](CCC(=O)O)NC(=O)[C@H](C)NC(=O)[C@H](CC(C)C)NC(=O)[C@H](C)NC(=O)[C@H](CCC(=O)O)NC(=O)[C@H](C)NC(=O)[C@H](CC(C)C)NC(=O)[C@H](C)NC(=O)[C@H](C)NC(=O)[C@H](CCC(=O)O)NC(=O)[C@H](Cc1c[nH]c2ccccc12)NC(=O)c1ccc2c(c1)C(=O)OC21c2ccc(O)cc2Oc2cc(O)ccc21)C(=O)N[C@@H](C)C(=O)N[C@@H](C)C(=O)O is recorded as “no effect” (no effect; Sprague-Dawley rat, excised skin; 50 µmol/L, 37 °C, FAM-labelled CPP conjugate; relative to: free FAM).

A few entries again:
For Cc1ccc(OS(=O)(=O)O)cc1, “unbound fraction in plasma” read 2 ± 1% (untargeted mass spectrometry; human normal subjects, plasma ultrafiltrate).
Oc1cc(Cl)c(Cl)c(-c2ccc(Cl)cc2Cl)c1Cl gave an enantiomeric fraction of 0.54 (enantioselective GC, refers to: hydroxylated metabolite; phenobarbital-treated rat, rat liver microsomes; 50 µM, 30 min).
With NCCc1c[nH]c2ccccc12 the percent metabolized was over 100% (human liver mitochondrial preparation; 1 µM, 30 min, 0.5 mg/mL protein).
